Experimental data from different studies.
Numbers after ± are the reported error.
B1: enzyme Y7A (Streptomyces parvus, UniProt A0A7K3RVR3); chain MYVPEQARPRDASWTLELIRSNPLALLVTNGPQHPWATHVPVLFAEEPDGPEGPDGLDATGDDLVGRRLLGHLNLMNPHWEALAGAGHALLVFQGPGSYVSPTVYETAPAAPTWDFTSVHVHGALRLIDDPDDLRKIVQATVRAYEREVGTDWDMSESLEYFERLLPGVRGFEIKIESVDSMFKLSQEQLPETVTKVIDSFRRSDGGRRQELATMIERAASD
B2: enzyme Y161A (Streptomyces parvus, UniProt A0A7K3RVR3); chain MYVPEQYRPRDASWTLELIRSNPLALLVTNGPQHPWATHVPVLFAEEPDGPEGPDGLDATGDDLVGRRLLGHLNLMNPHWEALAGAGHALLVFQGPGSYVSPTVYETAPAAPTWDFTSVHVHGALRLIDDPDDLRKIVQATVRAYEREVGTDWDMSESLEAFERLLPGVRGFEIKIESVDSMFKLSQEQLPETVTKVIDSFRRSDGGRRQELATMIERAASD
B3: enzyme E188A (Streptomyces parvus, UniProt A0A7K3RVR3); chain MYVPEQYRPRDASWTLELIRSNPLALLVTNGPQHPWATHVPVLFAEEPDGPEGPDGLDATGDDLVGRRLLGHLNLMNPHWEALAGAGHALLVFQGPGSYVSPTVYETAPAAPTWDFTSVHVHGALRLIDDPDDLRKIVQATVRAYEREVGTDWDMSESLEYFERLLPGVRGFEIKIESVDSMFKLSQAQLPETVTKVIDSFRRSDGGRRQELATMIERAASD

ORF34 Y215A (Kaposi's sarcoma-associated herpesvirus)  relative binding (ORF66; pull-down; 293T; relative to: wild-type ORF34, higher = more prey pulled down): 0.16
B1 (enzyme Y7A)  kcat (N[C@@H](CCCNO)C(=O)O; steady-state kinetics; pH 8, 25 °C, with: heme): 0.193 s⁻¹
CC[C@H](C)[C@@H]([C@@H](CC(=O)N1CCC[C@H]1[C@H](OC)[C@@H](C)C(=O)N[C@H](C)[C@@H](O)c1ccccc1)OC)N(C)C(=O)[C@@H](NC(=O)[C@H](C(C)C)N(C)C(=O)OCc1ccc(NC(=O)[C@H](CCCNC(N)=O)NC(=O)[C@@H](NC(=O)CCCCCN2C(=O)CC(SC[C@H](NC(=O)[C@H](CC(=O)O)NC(=O)[C@H](Cc3ccc(O)cc3)NC(=O)[C@H](Cc3c[nH]c4ccccc34)NC(=O)[C@@H](N)CCCNC(=N)N)C(=O)O)C2=O)C(C)C)cc1)C(C)C (stereo partly drawn)  concentration (C57BL/6 mouse, healthy, serum; intraperitoneal, 2.5 mg/kg, 24 h): not detected
B2 (enzyme Y161A)  kcat (N[C@@H](CCCNO)C(=O)O; steady-state kinetics; pH 8, 25 °C, with: heme): 0.17 s⁻¹
enzyme (Oryza sativa, UniProt A0A7G1K8F5)  kcat (CS(=O)(=O)c1ccc(C(=O)C2C(=O)CCCC2=O)c([N+](=O)[O-])c1; steady-state kinetics; pH 7.4, 30 °C): 0.0251 ± 0.0008 s⁻¹
ORF34 W160A (Kaposi's sarcoma-associated herpesvirus)  relative binding (ORF66; pull-down; 293T; relative to: wild-type ORF34, higher = more prey pulled down): 0.29
N=C(N)NCCC[C@@H]1NC(=O)[C@H](CCCCNC(=O)CCC(NC(=S)Nc2ccc(CC3CN(CC(=O)O)CCN(CC(=O)O)CCN(CC(=O)O)CCN3CC(=O)O)cc2)C(=O)NCCCC[C@@H]2NC(=O)[C@@H](Cc3ccc(O)cc3)NC(=O)[C@H](CC(=O)O)NC(=O)CNC(=O)[C@H](CCCNC(=N)N)NC2=O)NC(=O)[C@@H](Cc2ccc(O)cc2)NC(=O)[C@H](CC(=O)O)NC(=O)CNC1=O (stereo partly drawn) [scandium-44 labelled]  tissue uptake (ex vivo γ-counting; female athymic nude mice, U-87 MG xenograft, heart; intravenous, 4 h): 0.18 ± 0.09 %ID/g
CC[C@H](C)[C@H](NC(=O)[C@H](CO)NC(=O)[C@H](Cc1ccc(O)cc1)NC(=O)[C@H](Cc1ccc(O)cc1)NC(=O)[C@H](CC(N)=O)NC(=O)CNC(=O)[C@H](CO)NC(=O)[C@H](Cc1ccc(O)cc1)NC(=O)[C@H](CO)NC(=O)[C@H](CO)NC(=O)[C@H](CC(N)=O)NC(=O)COCCOCCNC(=O)CN1CCN(CC(=O)O)CCN(CC(=O)O)CCN(CC(=O)O)CC1)C(=O)N[C@@H](CC(C)C)C(N)=O [copper-64 labelled]  tumour uptake (dynamic PET; KPC mouse, pancreatic cancer model, blood; intravenous, 0.6 min, 49 days after tamoxifen): 33.6 %ID/mL
CC[C@H](C)[C@H](NC(=O)[C@H](CCC(N)=O)NC(=O)[C@H](Cc1c[nH]cn1)NC(=O)[C@@H](NC(=O)[C@H](Cc1c[nH]c2ccccc12)NC(=O)[C@H](CO)NC(=O)[C@H](CCC(N)=O)NC(=O)[C@@H]1CCCN1C(=O)[C@H](Cc1c[nH]cn1)NC(=O)[C@@H](NC(=O)[C@H](CCCNC(=N)N)NC(=O)[C@H](CC(C)C)NC(=O)[C@H](Cc1ccc(O)cc1)NC(=O)[C@H](CCCNC(=N)N)NC(=O)[C@@H](NC(=O)[C@H](CS)NC(=O)[C@H](CCCCN)NC(=O)[C@H](Cc1ccccc1)NC(=O)[C@@H](NC(=O)[C@H](CCCCN)NC(=O)[C@H]1CC[C@H](CN)CC1)[C@@H](C)O)[C@@H](C)O)[C@@H](C)CC)C(C)C)C(=O)O  viability (HUVEC; MTT; 1.0 mg/ml, 24 h, 37 °C): 5 to 10%
CCCC[C@H](NC(=O)CN1CCC(NC(=O)CN2CCN(CC(N)=O)CCN(CC(N)=O)CCN(CC(N)=O)CC2)CC1)C(=O)N[C@H]1CC(=O)NCCCC[C@@H](C(N)=O)NC(=O)[C@H](Cc2c[nH]c3ccccc23)NC(=O)[C@H](CCCNC(=N)N)NC(=O)[C@@H](Cc2ccccc2)NC(=O)[C@H](Cc2c[nH]cn2)NC1=O [lead-212 labelled]  tissue uptake (male C57BL/6J mice, B16-F10 tumour, kidneys; intravenous, 20 pmol, 2 h, ex vivo): 7.11 ± 1.96 %IA/g
B3 (enzyme E188A)  kcat (N[C@@H](CCCNO)C(=O)O; steady-state kinetics; pH 8, 25 °C, with: heme): 0.125 s⁻¹
AAUUUUUUAGGGAAGAUCUGGCCUUCCUACAAGGGAAGGCCAGGGAAUUUUCUUC (ssRNA (HIV-1); stem-loop)  relative binding (SHFL 1-291 T253A (Homo sapiens, UniProt Q9NUL5); BLI; folded RNA; relative to: WT, lower = weaker affinity): > 4 fold

Repeated from above:
CC[C@H](C)[C@H](NC(=O)[C@H](CO)NC(=O)[C@H](Cc1ccc(O)cc1)NC(=O)[C@H](Cc1ccc(O)cc1)NC(=O)[C@H](CC(N)=O)NC(=O)CNC(=O)[C@H](CO)NC(=O)[C@H](Cc1ccc(O)cc1)NC(=O)[C@H](CO)NC(=O)[C@H](CO)NC(=O)[C@H](CC(N)=O)NC(=O)COCCOCCNC(=O)CN1CCN(CC(=O)O)CCN(CC(=O)O)CCN(CC(=O)O)CC1)C(=O)N[C@@H](CC(C)C)C(N)=O [copper-64 labelled]  tumour uptake (dynamic PET; KPC mouse, pancreatic cancer model, blood; intravenous, 0.6 min, 49 days after tamoxifen): 33.6 %ID/mL
CC[C@H](C)[C@H](NC(=O)[C@H](CCC(N)=O)NC(=O)[C@H](Cc1c[nH]cn1)NC(=O)[C@@H](NC(=O)[C@H](Cc1c[nH]c2ccccc12)NC(=O)[C@H](CO)NC(=O)[C@H](CCC(N)=O)NC(=O)[C@@H]1CCCN1C(=O)[C@H](Cc1c[nH]cn1)NC(=O)[C@@H](NC(=O)[C@H](CCCNC(=N)N)NC(=O)[C@H](CC(C)C)NC(=O)[C@H](Cc1ccc(O)cc1)NC(=O)[C@H](CCCNC(=N)N)NC(=O)[C@@H](NC(=O)[C@H](CS)NC(=O)[C@H](CCCCN)NC(=O)[C@H](Cc1ccccc1)NC(=O)[C@@H](NC(=O)[C@H](CCCCN)NC(=O)[C@H]1CC[C@H](CN)CC1)[C@@H](C)O)[C@@H](C)O)[C@@H](C)CC)C(C)C)C(=O)O  viability (HUVEC; MTT; 1.0 mg/ml, 24 h, 37 °C): 5 to 10%
